Assay results collected from several papers.
Parts stem from different laboratories: compare values within a part only. Changes are numbered by the printed parent chain.

Series 1
Target: ABI1, truncated, D143A, DHFR fusion (Arabidopsis thaliana)
Method: DHFR PCA, deep sequencing
Sample: yeast
Notes: methotrexate growth selection, single substitutions
Together with: (+)-ABA 2500 µM
Relative to: wild-type fitted maximum
Direction: higher = stronger binding
Starting sequence: PYL1, truncated, DHFR fusion (Arabidopsis thaliana); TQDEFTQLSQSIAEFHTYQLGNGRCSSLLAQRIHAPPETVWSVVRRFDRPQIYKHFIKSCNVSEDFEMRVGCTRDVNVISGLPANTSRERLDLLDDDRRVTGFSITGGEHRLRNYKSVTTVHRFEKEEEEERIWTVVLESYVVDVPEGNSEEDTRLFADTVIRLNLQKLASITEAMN; partner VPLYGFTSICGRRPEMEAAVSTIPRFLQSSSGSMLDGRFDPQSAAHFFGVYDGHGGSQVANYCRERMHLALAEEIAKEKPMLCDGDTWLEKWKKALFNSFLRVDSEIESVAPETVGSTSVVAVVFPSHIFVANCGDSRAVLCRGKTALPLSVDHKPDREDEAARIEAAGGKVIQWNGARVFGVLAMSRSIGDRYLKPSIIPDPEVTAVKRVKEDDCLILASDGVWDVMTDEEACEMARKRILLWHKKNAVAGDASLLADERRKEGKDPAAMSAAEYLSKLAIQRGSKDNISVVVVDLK
Variant	relative binding score
K58D	92%
F56A	69.7%
E139D	71.6%
A13D	91.8%
V145I	93.1%
Y115D	5.25%
E109A	95.5%
Q31Y	75.2%
S11F	83.4%
E129H	107%
T17N	92.3%
R88W	92.8%
T154R	0.604%
I133L	103%
F15S	90.8%
R69N	102%
T17S	104%
L82G	76.9%
S117M	55.2%
V62E	62.2%

Series 2
Target: CCND2, cyclin fold, Cln2 fusion (human)
Method: yeast growth competition, sequencing
Sample: yeast
Notes: weak parent motif
Relative to: not given
Direction: higher = stronger binding
Starting sequence: BRCA2 docking peptide (human); PSIKRNLLNEFDR; partner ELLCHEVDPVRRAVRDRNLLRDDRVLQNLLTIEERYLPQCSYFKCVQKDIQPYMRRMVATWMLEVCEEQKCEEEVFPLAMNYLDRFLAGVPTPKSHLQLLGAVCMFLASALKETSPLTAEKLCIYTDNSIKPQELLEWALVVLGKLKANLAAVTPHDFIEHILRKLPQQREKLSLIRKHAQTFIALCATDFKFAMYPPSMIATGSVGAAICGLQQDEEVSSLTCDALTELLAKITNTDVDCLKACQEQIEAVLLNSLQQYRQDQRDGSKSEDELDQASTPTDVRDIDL
Variant	normalised enrichment score
PSIKINLLNEFDR [R5I]	0.0883
PSIKRNLLNEFDF [R13F]	-0.278
PSIKRNLLCEFDR [N9C]	0.187
PSWKRNLLNEFDR [I3W]	-0.0806
PSIQRNLLNEFDR [K4Q]	-0.165
PSIKRNLSNEFDR [L8S]	0.462
PKIKRNLLNEFDR [S2K]	0.498
PSIKRNLLNEFCR [D12C]	0.12
SSIKRNLLNEFDR [P1S]	-0.0119
PSIKRNLLNEFYR [D12Y]	0.192
PSIKRNLKNEFDR [L8K]	0.482
PSIKRNLYNEFDR [L8Y]	0.303
PSIKRNLLNEIDR [F11I]	0.564
PSIKQNLLNEFDR [R5Q]	-0.00779
PSIKRNLLNEDDR [F11D]	0.152
PSIKRNLLNEHDR [F11H]	0.0664
PSIKENLLNEFDR [R5E]	0.427
PSIKRNLLGEFDR [N9G]	0.181
PSAKRNLLNEFDR [I3A]	0.253
PSIKRNLLNEFFR [D12F]	0.411
PSIKRNLLNEPDR [F11P]	-0.3
PSIKRNLLNEFDD [R13D]	0.418
PSIKRNLLNEYDR [F11Y]	0.251
PSIKDNLLNEFDR [R5D]	0.0401
PSIKLNLLNEFDR [R5L]	0.211

Series 3
Target: CREB3L4, bZIP domain (human)
Method: DHFR protein complementation
Sample: yeast
Notes: single substitutions, most at no-binding floor
Relative to: wild-type JUN-FOS pair
Direction: higher = stronger binding
Starting sequence: JUN, bZIP domain (human); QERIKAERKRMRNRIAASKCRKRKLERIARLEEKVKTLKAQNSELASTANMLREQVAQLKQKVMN; partner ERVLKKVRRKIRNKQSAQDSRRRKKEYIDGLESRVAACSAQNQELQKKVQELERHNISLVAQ
Variant	binding fitness [natural log]
E54T	-1.26
K36A	-1.39
A46T	-1.33
L45I	-1.48
N42T	-1.44
K39H	-1.4
A49F	-1.52
S43M	-1.48
L38R	-1.46
V56T	-1.51
Q41T	-1.49
A46Q	-1.52
E54S	-1.48
N42H	-1.47
K39L	-1.37

Series 4
Target: Sal-like protein 4, full length isoform A (SALL4, Homo sapiens, UniProt Q9UJQ4, residues 1-1053)
Chain of UniProt Q9UJQ4 (whole entry, looked up): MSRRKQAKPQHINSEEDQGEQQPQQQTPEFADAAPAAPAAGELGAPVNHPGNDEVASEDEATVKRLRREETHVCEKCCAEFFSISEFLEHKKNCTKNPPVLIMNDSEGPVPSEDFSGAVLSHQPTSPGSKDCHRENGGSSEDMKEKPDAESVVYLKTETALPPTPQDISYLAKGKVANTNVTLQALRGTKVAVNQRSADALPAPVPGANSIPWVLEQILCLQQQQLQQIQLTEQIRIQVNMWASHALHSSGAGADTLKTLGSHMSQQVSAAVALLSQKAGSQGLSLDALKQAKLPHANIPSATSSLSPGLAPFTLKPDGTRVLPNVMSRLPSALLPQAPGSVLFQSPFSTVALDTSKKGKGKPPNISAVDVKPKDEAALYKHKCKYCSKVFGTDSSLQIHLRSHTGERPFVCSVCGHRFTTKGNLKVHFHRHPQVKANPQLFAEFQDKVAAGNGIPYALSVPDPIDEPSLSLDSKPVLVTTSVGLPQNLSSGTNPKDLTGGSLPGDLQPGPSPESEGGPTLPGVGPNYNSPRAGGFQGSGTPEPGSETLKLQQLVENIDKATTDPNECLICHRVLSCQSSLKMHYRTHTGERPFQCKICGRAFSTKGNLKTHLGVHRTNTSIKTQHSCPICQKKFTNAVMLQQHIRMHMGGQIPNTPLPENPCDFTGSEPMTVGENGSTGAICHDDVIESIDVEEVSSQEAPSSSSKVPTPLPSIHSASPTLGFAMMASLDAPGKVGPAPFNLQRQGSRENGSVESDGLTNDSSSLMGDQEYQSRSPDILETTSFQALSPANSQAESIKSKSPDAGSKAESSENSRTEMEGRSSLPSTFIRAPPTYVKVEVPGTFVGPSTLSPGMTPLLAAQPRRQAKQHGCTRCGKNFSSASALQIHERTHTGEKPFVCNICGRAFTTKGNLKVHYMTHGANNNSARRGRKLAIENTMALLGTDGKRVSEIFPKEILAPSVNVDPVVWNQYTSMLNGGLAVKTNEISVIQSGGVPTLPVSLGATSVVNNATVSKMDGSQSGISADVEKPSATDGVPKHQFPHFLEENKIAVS
Method: universal PBM
Form: double-stranded DNA, one strand shown
Sample: in vitro
Tested at: 600 nM
Notes: 8-mer, flanks averaged, mean of replicates
Direction: higher = stronger binding
Strand	E-score
ATTTATGC	0.374
ATCATACC	0.182
GAAGGGTC	-0.265
AGAGGAAG	-0.0866
CATAAAGG	0.248
CATATAGC	0.214
CGAATCAA	0.182
ACCGATGG	-0.107
AGAAGTCG	-0.148
CGTGCGAC	-0.268
CGGCAACC	-0.327
AAAACCCG	-0.04
CTAGGGTA	-0.12
CTGGTTTA	0.0931
GACCCACC	-0.262
CTTTGGAA	0.162
AAACAAGC	0.0336
ACCGTCAC	-0.188
AATCCCAT	0.17
AGCTCACC	-0.164
TCGGGTAA	0.0922
CGCTTAGA	-0.202
AGCGGTAG	-0.164
GATCCCGC	-0.262
ATTATGGG	0.262

Series 5
Target: Fragile X messenger ribonucleoprotein 1, C-terminal low-complexity region (Fmr1, Mus musculus, UniProt P35922)
Method: RNA Bind-n-Seq
Form: RNA
Sample: in vitro
Tested at: 200 nM
Notes: whole 134-nt RNA, ends assumed
Together with: 150 mM LiCl
Relative to: input library
Direction: higher = stronger binding
All molecules: 7-deaza-guanosine replaces G
Strand	log2 enrichment
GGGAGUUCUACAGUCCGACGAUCUCCUGUGCUACACAUCGUAUGUACCGAAUCGGAAAAAAGGGGAAAAAAGGGAAAAAAGGAAAGUAUUAUGUUACGCCGUUCGGAUCUGCAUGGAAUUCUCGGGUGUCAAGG	-0.37
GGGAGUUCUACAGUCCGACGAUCUGUGCUACACAUCGUAUGUACCGAAUCGGGUUUUUUUGGGUUUUUUUGGGGUUUUUUUGGGGAAAGUAUUAUGUUACGCCGUUCGGAUCUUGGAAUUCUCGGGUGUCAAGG	1.67
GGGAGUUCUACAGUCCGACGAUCUCCUUUGUGUUUACAAAAGCACUGACCCUUUACCUUUUCUUUAGCAAGAAGAAUGGAAUGAACAUAAUGCCAAAAUAAUUAAAUAUAUAAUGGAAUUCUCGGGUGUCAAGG	2.28
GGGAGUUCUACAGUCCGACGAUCUCAAGUCCUGUGCUACACAUCGUAUGUACCGAAUCGGGGCCCGGCCCGGGCCCGGAAAGUAUUAUGUUACGCCGUUCGGAUCUGCACUUCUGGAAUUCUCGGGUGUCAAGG	-1.23
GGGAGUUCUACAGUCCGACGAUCCAAGUCCUGUGCUACACAUCGUAUGUACCGAAUCGGUUUUGGGGUUUUGGUUUUGGAAAGUAUUAUGUUACGCCGUUCGGAUCUGCACUUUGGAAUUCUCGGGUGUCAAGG	-1.89
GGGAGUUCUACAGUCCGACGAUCCCAUAGACCCCUUUCUUCUCCCCUUCCCCACGGUAGGAACAUAGCGUGUUUAUAUUUUAUGGCCAAACUAUUUUGAAUUUUGUUGUCCGGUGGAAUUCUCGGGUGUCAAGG	0.966
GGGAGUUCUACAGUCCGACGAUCCCUGUGCUACACAUCGUAUGUACCGAAUCGGGUUUUUUUGGGUUUUUUUGGGUUUUUUUGGAAAGUAUUAUGUUACGCCGUUCGGAUCUGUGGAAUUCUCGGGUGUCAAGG	0.783
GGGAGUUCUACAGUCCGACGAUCUAACUUUAGAGGAGGAUCUGAUGGAUAUGGCAGUGGACGUGGAUUUGGGAAUGGCUAUAAUGGGUAUGGAGGAGGACCUGGAGGUGGCAAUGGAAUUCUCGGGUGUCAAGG	-0.0131
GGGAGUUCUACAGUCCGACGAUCUCAAGUCCUGUGCUACACAUCGUAUGUACCGAAUCGGUUUUUGGAAAAAGGAGGAAAGUAUUAUGUUACGCCGUUCGGAUCUGCACUUCCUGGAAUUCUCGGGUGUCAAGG	-0.421
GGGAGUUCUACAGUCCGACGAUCUGGCCCUGGUGGCAUGCGGGGAGGAAGAGGUGGCCUCAUGGAUCGUGGUGGUCCCGGUGGACUGUUCAGAGGUGGCCGUGGUGGAGACAGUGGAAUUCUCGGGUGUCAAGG	0.735
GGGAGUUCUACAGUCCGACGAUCUGGGAGGUGGAUUUUGUUUAUUCUUUUAGCUCAUUUCCAGGGGUGGGAAUUUUUUUUUAAUAUGUGUCAUGAAUAAAGUUGUUUUUGAAAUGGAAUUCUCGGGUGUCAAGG	0.074

Other studies, line by line
Molecule	target	test	test system	conditions	how to read	measurement	value
PhoQ, residues 284 288 289 292 302 303 SLKLQV	PhoP, residues 12 14 15 18 19 NIMAP (Escherichia coli, UniProt P23836)	Sort-seq, measured: YFP reporter	E. coli	PhoQ-PhoP variant library, together with: 10 µM Mg2+	relative to: high Mg2+ state, higher = stronger signaling	fold induction	0.726

Some of these lines once more (series 5):
Strand	log2 enrichment
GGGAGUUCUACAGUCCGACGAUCUCAAGUCCUGUGCUACACAUCGUAUGUACCGAAUCGGGGCCCGGCCCGGGCCCGGAAAGUAUUAUGUUACGCCGUUCGGAUCUGCACUUCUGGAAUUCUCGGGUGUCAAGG	-1.23
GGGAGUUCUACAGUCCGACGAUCCAAGUCCUGUGCUACACAUCGUAUGUACCGAAUCGGUUUUGGGGUUUUGGUUUUGGAAAGUAUUAUGUUACGCCGUUCGGAUCUGCACUUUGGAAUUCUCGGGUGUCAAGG	-1.89
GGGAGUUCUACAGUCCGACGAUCCCAUAGACCCCUUUCUUCUCCCCUUCCCCACGGUAGGAACAUAGCGUGUUUAUAUUUUAUGGCCAAACUAUUUUGAAUUUUGUUGUCCGGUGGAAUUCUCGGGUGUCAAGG	0.966
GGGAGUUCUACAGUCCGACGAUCCCUGUGCUACACAUCGUAUGUACCGAAUCGGGUUUUUUUGGGUUUUUUUGGGUUUUUUUGGAAAGUAUUAUGUUACGCCGUUCGGAUCUGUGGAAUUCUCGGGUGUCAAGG	0.783
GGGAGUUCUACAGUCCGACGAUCUAACUUUAGAGGAGGAUCUGAUGGAUAUGGCAGUGGACGUGGAUUUGGGAAUGGCUAUAAUGGGUAUGGAGGAGGACCUGGAGGUGGCAAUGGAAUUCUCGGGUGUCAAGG	-0.0131
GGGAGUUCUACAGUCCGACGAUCUCAAGUCCUGUGCUACACAUCGUAUGUACCGAAUCGGUUUUUGGAAAAAGGAGGAAAGUAUUAUGUUACGCCGUUCGGAUCUGCACUUCCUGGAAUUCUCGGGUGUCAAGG	-0.421
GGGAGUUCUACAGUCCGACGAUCUGGCCCUGGUGGCAUGCGGGGAGGAAGAGGUGGCCUCAUGGAUCGUGGUGGUCCCGGUGGACUGUUCAGAGGUGGCCGUGGUGGAGACAGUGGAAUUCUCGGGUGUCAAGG	0.735
